{"data": "Assay results pooled from the literature", "note": "Numbered parts are unrelated; each lists some results of a single study. Substitutions count along the parent as printed.", "sequence of UniProt Q9Y3S1 (whole entry, looked up)": "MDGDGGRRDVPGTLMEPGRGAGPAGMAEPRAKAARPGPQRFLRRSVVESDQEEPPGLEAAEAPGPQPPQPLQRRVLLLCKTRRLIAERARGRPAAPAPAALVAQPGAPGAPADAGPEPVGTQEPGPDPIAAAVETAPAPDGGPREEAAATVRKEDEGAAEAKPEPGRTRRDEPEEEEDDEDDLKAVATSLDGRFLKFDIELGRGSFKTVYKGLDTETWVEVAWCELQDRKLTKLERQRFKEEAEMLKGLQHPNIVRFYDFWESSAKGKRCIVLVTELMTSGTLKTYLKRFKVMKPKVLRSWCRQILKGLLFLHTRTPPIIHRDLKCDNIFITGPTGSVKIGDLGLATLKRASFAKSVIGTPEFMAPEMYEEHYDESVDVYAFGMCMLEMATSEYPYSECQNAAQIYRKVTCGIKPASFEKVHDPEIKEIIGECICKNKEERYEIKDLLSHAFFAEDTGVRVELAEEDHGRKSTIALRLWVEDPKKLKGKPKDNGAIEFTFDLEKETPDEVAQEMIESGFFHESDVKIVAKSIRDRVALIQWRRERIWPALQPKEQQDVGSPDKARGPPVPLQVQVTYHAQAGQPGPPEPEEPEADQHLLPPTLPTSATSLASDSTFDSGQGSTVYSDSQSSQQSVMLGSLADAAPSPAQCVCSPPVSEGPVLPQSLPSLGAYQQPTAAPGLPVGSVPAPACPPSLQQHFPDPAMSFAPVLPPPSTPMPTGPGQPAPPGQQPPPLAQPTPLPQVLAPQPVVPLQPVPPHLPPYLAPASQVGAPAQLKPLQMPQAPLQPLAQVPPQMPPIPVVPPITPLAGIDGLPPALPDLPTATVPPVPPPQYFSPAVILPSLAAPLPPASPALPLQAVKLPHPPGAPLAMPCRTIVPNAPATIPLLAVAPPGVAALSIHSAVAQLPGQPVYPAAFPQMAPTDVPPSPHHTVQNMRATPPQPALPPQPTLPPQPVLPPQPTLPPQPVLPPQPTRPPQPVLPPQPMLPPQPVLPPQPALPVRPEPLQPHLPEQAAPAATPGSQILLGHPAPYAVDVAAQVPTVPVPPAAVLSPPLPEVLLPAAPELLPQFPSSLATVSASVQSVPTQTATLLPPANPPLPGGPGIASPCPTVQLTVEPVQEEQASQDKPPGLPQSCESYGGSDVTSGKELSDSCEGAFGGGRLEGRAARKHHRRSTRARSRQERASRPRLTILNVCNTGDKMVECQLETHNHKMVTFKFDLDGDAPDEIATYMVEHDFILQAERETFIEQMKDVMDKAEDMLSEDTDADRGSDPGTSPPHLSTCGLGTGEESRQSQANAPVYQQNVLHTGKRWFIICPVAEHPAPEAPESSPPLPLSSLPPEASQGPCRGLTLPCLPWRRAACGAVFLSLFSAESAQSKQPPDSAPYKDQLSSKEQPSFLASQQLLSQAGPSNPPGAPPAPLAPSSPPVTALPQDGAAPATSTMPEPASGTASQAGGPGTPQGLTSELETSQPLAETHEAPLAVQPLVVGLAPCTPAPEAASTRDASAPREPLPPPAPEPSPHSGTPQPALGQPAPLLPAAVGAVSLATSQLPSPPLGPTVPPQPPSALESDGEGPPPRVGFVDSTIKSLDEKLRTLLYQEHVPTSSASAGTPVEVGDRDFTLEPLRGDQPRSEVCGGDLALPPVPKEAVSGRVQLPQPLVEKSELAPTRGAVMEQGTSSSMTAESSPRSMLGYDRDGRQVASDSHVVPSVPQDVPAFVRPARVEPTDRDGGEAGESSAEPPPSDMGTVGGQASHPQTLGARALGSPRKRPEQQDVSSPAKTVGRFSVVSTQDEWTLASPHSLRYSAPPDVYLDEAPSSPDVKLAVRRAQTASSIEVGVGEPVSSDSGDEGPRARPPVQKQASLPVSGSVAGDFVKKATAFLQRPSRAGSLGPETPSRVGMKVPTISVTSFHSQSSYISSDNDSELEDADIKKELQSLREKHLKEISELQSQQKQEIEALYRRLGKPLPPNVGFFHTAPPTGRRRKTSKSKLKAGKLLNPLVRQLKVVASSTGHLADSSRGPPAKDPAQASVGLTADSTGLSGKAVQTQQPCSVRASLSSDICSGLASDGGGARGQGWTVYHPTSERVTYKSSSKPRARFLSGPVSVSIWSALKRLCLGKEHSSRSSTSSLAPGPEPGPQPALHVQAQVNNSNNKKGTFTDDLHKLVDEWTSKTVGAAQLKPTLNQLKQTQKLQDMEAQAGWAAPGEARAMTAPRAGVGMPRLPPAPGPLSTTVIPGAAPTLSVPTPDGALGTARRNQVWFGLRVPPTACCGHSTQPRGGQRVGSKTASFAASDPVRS"}
{"data": "Sample 1", "target": "ABI1, truncated, D143A, DHFR fusion (Arabidopsis thaliana, UniProt P49597)", "method": "DHFR PCA, dose-response", "sample": "yeast", "setting": "Hill fit, not affinity, not high confidence", "with": "(+)-ABA, dose series", "reading": "lower = more sensitive", "starting sequence": "PYL1, truncated, DHFR fusion (Arabidopsis thaliana, UniProt Q8VZS8); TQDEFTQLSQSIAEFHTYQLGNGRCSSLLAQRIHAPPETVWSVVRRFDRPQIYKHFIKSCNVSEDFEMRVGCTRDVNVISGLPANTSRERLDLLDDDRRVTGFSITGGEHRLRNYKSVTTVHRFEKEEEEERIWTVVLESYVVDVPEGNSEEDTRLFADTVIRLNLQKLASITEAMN"}
{"Variant": "E89F", "ABA EC50 [µM]": 1810}
{"Variant": "K54F", "ABA EC50 [µM]": 65.7}
{"Variant": "A35F", "ABA EC50 [µM]": 636}
{"Variant": "A84H", "ABA EC50 [µM]": 0.814}
{"Variant": "V43D", "ABA EC50 [µM]": 0.532}
{"Variant": "S80I", "ABA EC50 [µM]": 25.5}
{"Variant": "T154R", "ABA EC50 [µM]": 4.11}
{"Variant": "S140N", "ABA EC50 [µM]": 734}
{"data": "Sample 2", "target": "Interferon regulatory factor 7, full length, phosphomimetic (IRF7, Homo sapiens, UniProt Q92985, residues 1-503, S101K/S471D/S472D/S475D/S476D/S477D/S483D/S484D/S487D)", "method": "protein-binding microarray", "form": "double-stranded DNA, one strand shown", "sample": "in vitro", "concentration": "250 nM", "setting": "60-bp whole probe", "with": "salmon DNA 0.4 mg/ml", "baseline": "random background probes", "reading": "higher = stronger binding", "shared flanks, not repeated": "GCCTAGCAC … GTCTTGATTCGCTTGACGCTGCTG", "Residues (chain)": "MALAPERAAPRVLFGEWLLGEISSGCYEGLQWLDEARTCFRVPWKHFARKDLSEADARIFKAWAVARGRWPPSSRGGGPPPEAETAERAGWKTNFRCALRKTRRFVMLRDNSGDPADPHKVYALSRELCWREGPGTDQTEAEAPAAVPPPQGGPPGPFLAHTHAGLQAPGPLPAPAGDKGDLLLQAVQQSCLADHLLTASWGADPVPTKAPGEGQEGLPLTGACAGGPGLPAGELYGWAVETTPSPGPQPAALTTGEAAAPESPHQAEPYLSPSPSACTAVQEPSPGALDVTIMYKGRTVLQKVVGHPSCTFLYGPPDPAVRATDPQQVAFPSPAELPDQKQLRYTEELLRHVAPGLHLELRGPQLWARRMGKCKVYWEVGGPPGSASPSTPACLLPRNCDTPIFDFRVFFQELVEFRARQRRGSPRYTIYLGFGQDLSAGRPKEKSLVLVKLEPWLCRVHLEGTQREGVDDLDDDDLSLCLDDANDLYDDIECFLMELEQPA"}
{"Oligonucleotide": "TCACTTTTATGCTCTTTCACTGTGCTA", "log fluorescence [z-score]": 0.591}
{"Oligonucleotide": "CTAGGTTTCGGTTTCGGTTAGTGCTAG", "log fluorescence [z-score]": 15}
{"Oligonucleotide": "TTAGGTTTCAGGACTGGGTTAGTGCTA", "log fluorescence [z-score]": 0.5}
{"Oligonucleotide": "TTAGGTCTCGGACTGCGTTAGTGCTAG", "log fluorescence [z-score]": 0.406}
{"Oligonucleotide": "GACGAACTGGGGTTTCTAGACGTGCTA", "log fluorescence [z-score]": -0.155}
{"Oligonucleotide": "CTGTTTTTGCTTTCCTTCTTGTGCTAG", "log fluorescence [z-score]": 3.07}
{"Oligonucleotide": "TCAGGACTGGACACTGGGTTAGTGCTA", "log fluorescence [z-score]": -0.831}
{"Oligonucleotide": "GACGAAATCAGACTGGAGACGTGCTAG", "log fluorescence [z-score]": -0.148}
{"data": "Single results of other studies"}
{"Substance": "COc1ccc(CNC(=O)Nc2ncc([N+](=O)[O-])s2)cc1", "target or system": "WNK2 (Homo sapiens, UniProt Q9Y3S1)", "test": "enzyme activity, inhibitor", "conditions": "0.5 µM", "scale": "baseline: control", "quantity": "remaining activity", "value": "104%"}
{"Substance": "MDH2 (Homo sapiens, UniProt P40926)", "target or system": "ACO2 (Homo sapiens, UniProt Q99798)", "test": "cross-linking MS", "test system": "cell fractions", "conditions": "with: DHSO", "quantity": "cross-linked residues", "value": "E232 to E639"}
{"note": "Repeated from above (sample 1):"}
{"Variant": "K54F", "ABA EC50 [µM]": 65.7}
{"Variant": "A84H", "ABA EC50 [µM]": 0.814}
